Measurements gathered from unrelated publications.
Each line is one published result; not all experiments were run side by side. ± marks the error that the study gave.

`O=C(O)Cc1ccccc1Nc1c(Cl)cccc1Cl`: “elimination rate constant” 0.00138 s⁻¹ (pooled human liver microsomes; 2 µM, pH 7.4).
Under “elimination rate constant”, `CN[C@H](CC(C)C)C(=O)N[C@H]1C(=O)N[C@@H](CC(N)=O)C(=O)N[C@H]2C(=O)N[C@H]3C(=O)N[C@H](C(=O)N[C@H](C(=O)O)c4cc(O)cc(O)c4-c4cc3ccc4O)[C@H](O)c3ccc(c(Cl)c3)Oc3cc2cc(c3O[C@@H]2O[C@H](CO)[C@@H](O)[C@H](O)[C@H]2O[C@H]2C[C@](C)(N)[C@H](O)[C@H](C)O2)Oc2ccc(cc2Cl)[C@H]1O` is recorded as 3.33e-05 s⁻¹ (guinea pig, tissue cage fluid; local, 10 mg/mL, poloxamer 407 hydrogel).
`CCOc1c([C@H](C)n2nc(C)c3c(N)ncnc32)cc(Cl)c(F)c1[C@@H]1CNC(=O)C1` — result for “elimination rate constant”: 2.02e-05 s⁻¹ (rat liver microsomes; 0.5 µM, pH 7.4).
The elimination half-life of `CC(C)(CO)c1cc2cc(NC(=O)C3(c4ccc5c(c4)OC(F)(F)O5)CC3)c(F)cc2n1C[C@@H](O)CO` is reported as 13.1 h (human, plasma; standard ETI dose).
`C[C@@H](NC(=O)N1C(=O)[C@H](Cc2ccnc(N)c2)[C@H]1C(=O)O)C1CCCCC1` — result for “elimination rate constant”: 0.000151 s⁻¹ (UPLC-MS/MS; healthy adult Chinese volunteers, plasma; continuous intravenous infusion, 0.3 mg/kg/h, day 6 of 5-day infusion, mean).
`O=C(N1CCCCC1)C12CC(c3ccccc3)(C1)C2`: “elimination rate constant” 0.000167 s⁻¹ (pooled human liver microsomes; 2 µM, pH 7.4).
For `CC(C)(C)c1cc(C(C)(C)C)c(NC(=O)c2c[nH]c3ccccc3c2=O)cc1O`, the elimination half-life was 5 h (human, plasma; standard ETI dose).
`O=C(O)c1cc(O)c(O)c(O)c1`: “elimination rate constant” 0.000317 ± 0.000256 s⁻¹ (chicken Ross broiler, male, serum; intravenous, 0.49 mg/kg).
`O=C(c1cccnc1-c1ccncc1)N1CCC(O)(Cc2ccccc2)CC1` — result for “elimination rate constant”: 4.44e-05 s⁻¹ (healthy Japanese adults, plasma; oral, 200 mg single dose).
`Cc1nc2ccc(OCc3ccc(C(F)(F)F)cc3)cc2[nH]1` — result for “elimination rate constant”: 5.17e-05 s⁻¹ (human liver S9; 1 µM, pH 7.4).

Some of these lines once more:
Under “elimination rate constant”, `CN[C@H](CC(C)C)C(=O)N[C@H]1C(=O)N[C@@H](CC(N)=O)C(=O)N[C@H]2C(=O)N[C@H]3C(=O)N[C@H](C(=O)N[C@H](C(=O)O)c4cc(O)cc(O)c4-c4cc3ccc4O)[C@H](O)c3ccc(c(Cl)c3)Oc3cc2cc(c3O[C@@H]2O[C@H](CO)[C@@H](O)[C@H](O)[C@H]2O[C@H]2C[C@](C)(N)[C@H](O)[C@H](C)O2)Oc2ccc(cc2Cl)[C@H]1O` is recorded as 3.33e-05 s⁻¹ (guinea pig, tissue cage fluid; local, 10 mg/mL, poloxamer 407 hydrogel).
